{"data": "Published values from different studies", "note": "Lines come from different studies, so protocols differ. ± gives the spread as reported. Bridges are numbered along the chain shown (N, C = ends). Where no end group is shown, it is not given here."}
{"Substance": "CC(=O)Nc1ccc(C2=NNC(=O)C[C@H]2C)cc1", "test system": "guinea pig papillary muscle", "setting": "up to 30 µM, without forskolin", "how to read": "reference: baseline", "endpoint": "increase in contraction force", "result": "341 ± 82 mg"}
{"Substance": "cilengitide", "test system": "Sprague-Dawley rats, TNBS colitis, colon", "setting": "ip, 18 mg/kg/day, 42 d", "endpoint": "muscularis propria thickness", "result": "80 ± 4 µm"}
{"Substance": "O=c1cc(-c2ccc(O)cc2)oc2cc(O)cc(O)c12", "test": "cell proliferation, CellTiter-Glo", "test system": "cord blood CD34+ cells, human", "setting": "24 h, lowest dose with significant inhibition", "how to read": "reference: vehicle", "endpoint": "lowest effective concentration", "result": "250 to 500 µM"}
{"Substance": "O=c1[nH]cc(F)c(=O)[nH]1", "test": "item: tumour weight", "test system": "nude mouse, HeLa xenograft", "setting": "intraperitoneal, 30 mg/kg, every 2 days for 20 days", "endpoint": "tumour growth inhibition", "result": "61.9%"}
{"Substance": "Polymyxin B", "test system": "human whole blood", "setting": "50 ng/mL, 4 h, 37 °C, with: E. coli LPS 0.5 ng/mL", "how to read": "reference: LPS without compound", "endpoint": "IL-10 release", "result": "53.1 ± 16.8%"}
{"Substance": "CS(=O)(=O)c1ccc(-c2nc3ccccn3c2Nc2ccc(Cl)cc2)cc1", "test": "formalin test", "test system": "male Wistar rat", "setting": "intraperitoneal, 40 mg/kg", "how to read": "reference: control group", "endpoint": "pain score AUC", "result": "decreased"}
{"Substance": "CC(C)C[C@@H]1NC(=O)[C@H](CCCNC(=N)N)NC(=O)[C@H](Cc2c[nH]c3ccccc23)NC(=O)[C@H](CCCNC(=N)N)NC(=O)CNC(=O)CNC(=O)[C@H](CCCCN)NC(=O)CNC(=O)[C@H](Cc2c[nH]c3ccccc23)NC(=O)[C@H](CC(=O)O)NC(=O)[C@@H](NC(=O)[C@H](CCC(=O)O)NC(=O)[C@H](C)NC(=O)CCCC[C@@H]2SC[C@@H]3NC(=O)N[C@@H]32)CSSC[C@@H](C(=O)NCC(=O)N2CCC[C@H]2C(=O)O)NC(=O)[C@H](C)NC(=O)[C@H](CCC(=O)O)NC(=O)[C@H]([C@@H](C)O)NC(=O)[C@H](CCCCN)NC(=O)CNC(=O)[C@H](CO)NC(=O)[C@H](C)NC(=O)CNC(=O)[C@@H]2CCCN2C(=O)[C@H](Cc2c[nH]c3ccccc23)NC1=O", "test": "thioflavin S, Congo red", "test system": "APPswe/PSEN1(A246E) mouse, young, brain cortex", "setting": "s.c., once monthly, 5 to 12 months, with adjuvant", "how to read": "reference: mock-immunized", "endpoint": "amyloid plaque burden", "result": "12 ± 3%"}
{"Substance": "C[C@]12C=CC(=O)C=C1CC[C@@H]1[C@@H]2C(=O)C[C@@]2(C)[C@H]1CC[C@]2(O)C(=O)CO", "test system": "BALB/c mouse pristane-induced lupus", "setting": "oral, 15 mg/kg, weeks 1 to 20, read at week 20", "endpoint": "anti-dsDNA titre", "result": "8610 ± 1640 U/mL"}
{"Substance": "KSPNPRF (Cy5.5-labelled)", "test": "ex vivo fluorescence imaging", "test system": "peptide, CPC;Apc mouse, excised colon adenoma", "setting": "iv, 200 µL of 300 µM, Cy5.5 labelled", "how to read": "reference: adenoma over normal mucosa", "endpoint": "fluorescence ratio", "result": "5.03 fold"}
{"Substance": "[H]/N=C(/N)c1ccc(NCc2nc3cc(C(=O)N(CCC(=O)O)c4ccccn4)ccc3n2C)cc1", "test": "platelet activation, inhibitor, item: ATP release", "test system": "mouse platelet-rich plasma", "setting": "20% plasma, with: thrombin", "endpoint": "EC50", "result": "7 nM"}
{"Substance": "GKWHCTTKFPHHYCLYG (disulfide 5-14 (inferred)) (cyclic, disulfide)", "test system": "β2-AR transgenic mouse, right ventricle lysate", "setting": "intravenous, 0.5 mg/kg, 4 h", "how to read": "reference: nontransgenic mice", "endpoint": "fluorescence intensity", "result": "1.95 fold"}
{"Substance": "O=C(O)CSc1nnc(C23CC4CC(CC(C4)C2)C3)n1-c1ccccc1", "test": "paw oedema", "test system": "rat", "setting": "intraperitoneal, 20 mg/kg", "endpoint": "inhibition in vivo", "result": "28.9%"}
{"Substance": "AGEDPHGYFLPGQFA", "test": "neutrophil and monocyte recruitment", "test system": "peptide, C57BL/6J mouse, zymosan peritonitis", "setting": "ip, 1 h before zymosan", "endpoint": "maximal effective dose", "result": "8 pg/mouse"}
{"Substance": "CS/C(S)=N/CCCC[S+](C)[O-] (racemic)", "test": "RT-PCR, item: Chst1", "test system": "rat, colon", "setting": "oral gavage, 200 mg/kg, 96 h, dosed for four days", "how to read": "reference: vehicle", "endpoint": "mRNA fold change", "result": 2.96}
{"Substance": "Cc1ccc(NC(=O)c2ccc(CN3CCN(C)CC3)cc2)cc1Nc1nccc(-c2cncc(-c3oncc3C)c2)n1", "test system": "mild-to-moderate Parkinson's disease patients", "setting": "oral, 100 mg once daily, pre-dose baseline, practically defined OFF state", "how to read": "direction not given", "endpoint": "MDS-UPDRS part III score", "result": "41 ± 18.3"}
{"Substance": "O=C([O-])CN(CCN(CC(=O)[O-])Cc1cc(CCC(=O)NCCCCCC(=O)NCCCC[C@H](NC(=O)N[C@@H](CCC(=O)O)C(=O)O)C(=O)O)ccc1O)Cc1cc(CCC(=O)O)ccc1O.[18F-].[Al+3]", "test": "microPET/CT", "test system": "PC-3 xenograft, PSMA-negative, NSG mouse", "how to read": "reference: muscle and liver", "endpoint": "tumour-to-background ratio", "result": "1 to 2"}
{"Substance": "NCCCCCCNS(=O)(=O)c1cccc2c(Cl)cccc12", "test": "inhibitor, co-immunoprecipitation", "test system": "mouse forebrain slices", "setting": "20 µM, with: NMDA 100 µM for 5 min", "endpoint": "NMDA-induced loss of PSD-95-α-actinin binding", "result": "inhibited"}
{"Substance": "C[C@H]1c2cccc(O)c2C(=O)C2=C(O)[C@]3(O)C(=O)C(C(N)=O)=C(O)[C@@H](N(C)C)[C@@H]3[C@@H](O)[C@@H]21", "test": "inducer, NanoBiT reporter", "setting": "100 µg/mL, after withdrawal", "endpoint": "luminescence signal stability", "result": "≥ 6 h"}
{"Substance": "CC[C@@H](C(=O)Nc1ccc(C(N)=O)c(F)c1)n1cc(OC)c(-c2cc(Cl)ccc2-n2cc(C(F)(F)F)nn2)cc1=O", "test system": "New Zealand White rabbit, FeCl2 jugular injury", "setting": "intravenous, 2 mg/kg", "endpoint": "thrombus weight", "result": "1.6 mg"}
{"Substance": "Cc1c(C(=O)NN2CCCCC2)nn(-c2ccc(Cl)cc2Cl)c1-c1ccc(Cl)cc1", "test system": "rat, diet-induced obese, plasma", "setting": "peripheral, 10 mg/kg per day, 6 days", "endpoint": "glucose level", "result": "5.32 ± 0.59 mmol/L"}
{"Substance": "bovine insulin", "test system": "Sprague-Dawley rat, fasted", "setting": "subcutaneous, 1 IU/kg", "endpoint": "glucose reduction", "result": "45 ± 16.6%"}
{"Substance": "CCOc1ccc(NCC(O)Cn2c3ccc(Br)cc3c3cc(Br)ccc32)cc1 (centres unmarked)", "test": "neurogenesis", "test system": "C57BL/6J mouse, hippocampal dentate gyrus", "setting": "intracerebroventricular, 10 µM at 12 µL/day, 7 days", "endpoint": "BrdU-positive cells", "result": "2.43e+07 ± 2.8e+06 cells/mm³"}
{"Substance": "neuropeptide Y", "test system": "Sprague Dawley rat, urethane-anaesthetised", "setting": "intravenous, 5 nmol", "endpoint": "pressor response onset time", "result": "32 ± 8 s"}
{"Substance": "CCOC(=O)N1CCC(NCCNC(=O)c2ccccc2)CC1", "test": "whole-cell patch clamp", "test system": "rat hippocampal CA1 pyramidal cells", "setting": "30 µM, 2 min", "how to read": "reference: baseline", "endpoint": "NMDA current amplitude", "result": "138 ± 11.3%"}
{"Substance": "Oc1cccc2ccccc12", "test": "fish short-term reproduction", "test system": "Oryzias latipes, female, liver", "setting": "258 µg/L, 21 d", "endpoint": "vitellogenin level", "result": "3840 ± 579 ng/mg liver"}
{"Substance": "CCO[C@@H](Cc1ccc(OCCn2c(C)ccc2-c2ccc(SC)cc2)cc1)C(=O)O", "test": "plasma triglyceride not above vehicle", "test system": "dyslipidemic Sprague-Dawley rat", "setting": "with: ACC inhibitor 30 mg/kg", "endpoint": "effective dose", "result": "≥ 0.3 mg/kg"}
{"Substance": "Clc1ccc2[nH]c(-c3cccc(OCc4ccccc4)c3)nc2c1", "test": "ABTS scavenging, absorbance", "endpoint": "IC50", "result": "1850 nM"}
{"Substance": "insulin aspart", "test": "euglycaemic clamp", "test system": "human, type 1 diabetes", "setting": "0.3 U/kg", "how to read": "reference: compound over NN-Asp-US", "endpoint": "GIRmax ratio", "result": 1.03}
{"Substance": "COc1ccc2c(c1)c(CC(=O)O)c(C)n2C(=O)c1ccc(Cl)cc1", "test": "multiplex bead immunoassay, item: IL-4", "test system": "CD-1 mice, serum", "setting": "ip, 20 mg/kg, three-injection regimen, with: LPS 3 mg/kg", "endpoint": "cytokine level", "result": "0 pg/mL"}
{"Substance": "C[C@H](Nc1ncnc2nc[nH]c12)c1cc2cccc(Cl)c2c(=O)n1-c1ccccc1", "test": "B cell activation, inhibitor, item: CD86", "test system": "female Wistar rat, blood", "setting": "oral, 2 h, with: anti-IgD", "endpoint": "ED50", "result": "0.09 mg/kg"}
{"Substance": "CN(Cc1cc(Br)cc(Br)c1N)C1CCCCC1", "test system": "TRAMP mice", "setting": "ip, 30 mg/kg three times weekly, 20 weeks from week 15", "how to read": "reference: vehicle", "endpoint": "prostate weight", "result": "5.2 ± 0.6 g"}
{"Substance": "Cc1ccc(NC(=O)c2ccc(CN3CCN(C)CC3)cc2)cc1Nc1nccc(-c2cccnc2)n1", "test system": "rat, SU5416/hypoxia PAH model", "setting": "oral, 15.0 mg/kg once daily, day 49", "how to read": "reference: vehicle", "endpoint": "reduction in mPAP", "result": "27%"}
{"Substance": "CCCn1cnc(C[C@H](NC(=O)[C@@H]2CCC(=O)C2)C(=O)N2CCC[C@H]2C(N)=O)c1", "test system": "Swiss albino mice", "setting": "intravenous, 10 µmol/kg, with: pentobarbital 50 mg/kg i.p. 10 min later", "endpoint": "sleeping time", "result": "34.4 ± 1.4 min"}
{"Substance": "Cn1c(-c2ccc(Br)s2)nc2cc(-c3nnc(-c4cc(-c5ccc(Cl)cc5Cl)nc5ccccc45)o3)ccc21", "test system": "human platelet-poor plasma", "setting": "concentration not given", "endpoint": "plasma recalcification time", "result": "545 s"}
{"Substance": "NCC(=O)Nc1cncc(-c2nn3c(=O)cc(N4CCNCC4)nc3s2)c1", "test": "light transmission aggregometry", "test system": "stable CAD patients on aspirin, blood ex vivo", "setting": "subcutaneous, 0.075 mg/kg, 15 min post-dose, with: ADP 20 µM", "endpoint": "inhibition of platelet aggregation", "result": "90.1%"}
{"Substance": "insulin aspart", "test system": "obese type 2 diabetes patients", "setting": "subcutaneous, 0.2 U/kg, before standard meal", "endpoint": "plasma glucose AUC(0-6 h)", "result": "750 mg·h/dL"}
{"Substance": "insulin degludec", "test": "euglycaemic clamp", "test system": "healthy human subjects", "setting": "subcutaneous, abdomen, 0.4 U/kg, 0 to 24 h", "endpoint": "AUC(GIR) mean estimate", "result": "2830 mg/kg"}
{"Substance": "teriparatide", "test system": "healthy women, serum", "setting": "subcutaneous, 20 µg, single dose", "endpoint": "corrected calcium AUC(0-t)", "result": "27.6 mmol·h/L"}
{"Substance": "CC(C)C[C@H](NC(=O)[C@H](CO)NC(=O)[C@H](CCCNC(=N)N)NC(=O)[C@H](CC(=O)O)NC(=O)[C@H](CCC(=O)O)NC(=O)[C@H](C)NC(=O)[C@@H]1CCCN1C(=O)[C@H](C)NC(=O)[C@H](CCC(=O)O)NC(=O)[C@@H]1CCCN1C(=O)[C@@H]1CCCN1)C(N)=O", "test system": "F344 rat, unilateral 6-OHDA lesion", "setting": "intranasal, 300 µg daily, 4 weeks after lesion, with: d-amphetamine 2.5 mg/kg i.p.", "how to read": "reference: vehicle", "endpoint": "reduction of rotation", "result": "35%"}
{"Substance": "COc1ccc(Nc2c(-c3ccc(S(C)(=O)=O)cc3)nc3c(C)cccn23)cc1", "test": "formalin test", "test system": "male Wistar rat", "setting": "intraperitoneal, 40 mg/kg", "how to read": "reference: control group", "endpoint": "pain score AUC", "result": "decreased"}
{"Substance": "COCCOCCOCCOCCOc1ccc(C2=N[C@@](C)(C(=O)[O-])CS2)c(O)c1.[Na+]", "test system": "bile duct-cannulated rats, non iron-overloaded, bile", "setting": "oral, 300 µmol/kg", "endpoint": "duration of iron excretion", "result": "24 h"}
{"note": "Repeated from above:"}
{"Substance": "C[C@]12C=CC(=O)C=C1CC[C@@H]1[C@@H]2C(=O)C[C@@]2(C)[C@H]1CC[C@]2(O)C(=O)CO", "test system": "BALB/c mouse pristane-induced lupus", "setting": "oral, 15 mg/kg, weeks 1 to 20, read at week 20", "endpoint": "anti-dsDNA titre", "result": "8610 ± 1640 U/mL"}
{"Substance": "KSPNPRF (Cy5.5-labelled)", "test": "ex vivo fluorescence imaging", "test system": "peptide, CPC;Apc mouse, excised colon adenoma", "setting": "iv, 200 µL of 300 µM, Cy5.5 labelled", "how to read": "reference: adenoma over normal mucosa", "endpoint": "fluorescence ratio", "result": "5.03 fold"}
{"Substance": "[H]/N=C(/N)c1ccc(NCc2nc3cc(C(=O)N(CCC(=O)O)c4ccccn4)ccc3n2C)cc1", "test": "platelet activation, inhibitor, item: ATP release", "test system": "mouse platelet-rich plasma", "setting": "20% plasma, with: thrombin", "endpoint": "EC50", "result": "7 nM"}
